Experimental data of several laboratories.
Every numbered part comes from another study and shows a few of its results, in no order.

Block 1
Target: Histone acetyltransferase KAT6A, winged helix 1, GST fusion (KAT6A, Homo sapiens, UniProt Q92794, residues 1-85)
Method: protein binding microarray
Form: double-stranded DNA, one strand shown
Sample: in vitro
Concentration: not given
Notes: 8-mer, flanks averaged, mean of 2 arrays, mostly near background
Reference: not given
Direction: higher = stronger binding
Target sequence (chain): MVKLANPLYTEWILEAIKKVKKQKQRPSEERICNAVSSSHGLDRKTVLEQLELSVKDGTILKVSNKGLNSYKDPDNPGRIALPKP
`AATAACAT` gave an E-score of 0.00236.
The E-score of `AATCTACT` is reported as 0.0462.
For `TATCCAGA`, the E-score was -0.068.
`AGTCATAC` gave an E-score of 0.00754.

Block 2
Target: Ras GTPase-activating protein-binding protein 1, C-terminal RGG region (G3BP1, Homo sapiens, UniProt Q13283)
Sequence of UniProt Q13283 (whole entry, looked up): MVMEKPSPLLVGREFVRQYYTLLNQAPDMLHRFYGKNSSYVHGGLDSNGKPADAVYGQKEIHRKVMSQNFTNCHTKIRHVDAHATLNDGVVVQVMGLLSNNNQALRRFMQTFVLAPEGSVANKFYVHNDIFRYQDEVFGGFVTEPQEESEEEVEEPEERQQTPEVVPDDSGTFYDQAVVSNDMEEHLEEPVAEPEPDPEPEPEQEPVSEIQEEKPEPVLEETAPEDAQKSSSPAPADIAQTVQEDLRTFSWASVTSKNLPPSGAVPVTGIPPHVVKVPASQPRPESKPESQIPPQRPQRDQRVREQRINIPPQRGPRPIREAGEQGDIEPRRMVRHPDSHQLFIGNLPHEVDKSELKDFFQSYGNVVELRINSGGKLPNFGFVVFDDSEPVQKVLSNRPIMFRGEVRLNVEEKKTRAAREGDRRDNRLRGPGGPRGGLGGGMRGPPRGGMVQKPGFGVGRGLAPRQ
Method: RNA Bind-n-Seq
Form: RNA
Sample: in vitro
Concentration: 1 µM
Notes: whole 134-nt RNA, ends assumed
Together with: 150 mM KCl
Reference: input library
Direction: higher = stronger binding
For `GGGAGUUCUACAGUCCGACGAUCAGUCCUGUGCUACACAUCGUAUGUACCGAAUCGGGGAAAGGGGAAAGGGGUUUGGGGAAAGUAUUAUGUUACGCCGUUCGGAUCUGCACUUGGAAUUCUCGGGUGUCAAGG`, the log2 enrichment was 3.84.
`GGGAGUUCUACAGUCCGACGAUCAAGUCCUGUGCUACACAUCGUAUGUACCGAAUCGGUUUUUGGUUUGGAAAAAAAGGAAAGUAUUAUGUUACGCCGUUCGGAUCUGCACUUUGGAAUUCUCGGGUGUCAAGG` has a log2 enrichment of -2.26.
For `GGGAGUUCUACAGUCCGACGAUCAAGUCCUGUGCUACACAUCGUAUGUACCGAAUCAAACCCAAACCCAAAUUUUUAAAAAAGUAUUAUGUUACGCCGUUCGGAUCUGCACUUUGGAAUUCUCGGGUGUCAAGG`, the log2 enrichment was -0.919.
`GGGAGUUCUACAGUCCGACGAUCUCCUGUGCUACACAUCGUAUGUACCGAAUCGGGAAAAAAGGAAAAAAGGGGAAAAAAGGGAAAGUAUUAUGUUACGCCGUUCGGAUCUGCUGGAAUUCUCGGGUGUCAAGG` has a log2 enrichment of -1.22.

Block 3
Target: RNA binding protein fox-1 homolog 2, RRM domain, GST-SBP tag (RBFOX2, Homo sapiens, UniProt O43251-10, residues 100-194)
Method: RNA Bind-n-Seq
Form: RNA
Sample: in vitro
Concentration: 365 nM
Notes: natural RNA segment, single round, ends assumed
Reference: no-protein control
Direction: higher = stronger binding
Construct (chain): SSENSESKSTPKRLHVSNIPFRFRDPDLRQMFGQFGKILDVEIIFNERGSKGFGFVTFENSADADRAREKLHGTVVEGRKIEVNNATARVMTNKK
`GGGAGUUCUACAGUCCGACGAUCAGAUGCCAAGCCCCGGGGUCUCACCAAAGCAGACAUAGAGCAGCUCCCGUCGUACCGCUUUAACCCGGACAGCCAUCAGUCGGAGCAGACGCGGUGUGUGGUCUGCUUCAUGGAAUUCUCGGGUGCCAA`: “RBNS enrichment (R)” 0.468.
Under “RBNS enrichment (R)”, `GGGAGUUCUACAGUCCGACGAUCCUUUCCAAAUCCUAAGGAAAAAUGAAGGCAAAACAAGUGUUAUGUCCAUUCAGCCAGGAACACACUCUAGCCUUCCUGACUCUCUUAAACUGUGGACGUCAGGAGGCCGAUGGAAUUCUCGGGUGCCAA` is recorded as 0.263.
Under “RBNS enrichment (R)”, `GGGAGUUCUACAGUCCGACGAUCACAGAGACGAAAAGGCUACCUCUCCUACCCAAGUUAAGUGUUCAAAGGGGAUGUGAGGGCCUCCACUGAAGCAGGGAGGCAGCUGUGUAAUCCUAUGUCAGCUCUCUUAGUGGAAUUCUCGGGUGCCAA` is recorded as 0.659.
Under “RBNS enrichment (R)”, `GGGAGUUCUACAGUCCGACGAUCCAUGCUUAAAAAGGAUGCCUCUUGUUUCUUGCUGCUGUAACUUACCAGAAAGUGUUAUAUAUUUAUUUCUGUCGGAACAGUGUUAUGCUACAAGACUUCAUAAUGGUUUUUGGAAUUCUCGGGUGCCAA` is recorded as 0.603.
`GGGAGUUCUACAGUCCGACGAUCGUCAUCUUCAUCCUCUAGGACAUUUAAAACAUGCUCAGUCCCUGGACCCAGAUGAUGGCUUCUCAGGGCAAGUCAUAAGUUAUCAGGUCCACUUGUCUGGAAGAAUAACAUGGAAUUCUCGGGUGCCAA` — result for “RBNS enrichment (R)”: 0.573.
`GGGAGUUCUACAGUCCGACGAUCGAUGGUUAGACUUGUAGUCACUGGGCUUUUGUUUUGCUUUAUGGAAAUCAUUGAAGGUCUGGAUCCCUUUCUCUGAAUGGAGAGAUUGAGAGGGAUGUCGGGCAGUUCCCUGGAAUUCUCGGGUGCCAA` — result for “RBNS enrichment (R)”: 1.71.
`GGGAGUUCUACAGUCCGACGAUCUGGUUCUCUCAGGGCUUCGCCUUCAAGGGUUCUGGAGGAGGGAAGGGUCUGCAGGUUCCAUGGGUGACAGCCUGAGAUCUGUCCCUUCAACGGGCUGGGCUGGGUAUGUGUGGAAUUCUCGGGUGCCAA`: “RBNS enrichment (R)” 1.5.

Single results of other studies
`PhoQ, residues 284 288 289 292 302 303 TLSLKA` has a fold induction of 1.19 (PhoP, residues 12 14 15 18 19 GMGLL (Escherichia coli, UniProt P23836); Sort-seq, item: YFP reporter; E. coli; PhoQ-PhoP variant library, together with: 10 µM Mg2+; reference: high Mg2+ state, higher = stronger signaling).

For quick reference, copied from above (block 3):
`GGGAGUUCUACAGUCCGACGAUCGAUGGUUAGACUUGUAGUCACUGGGCUUUUGUUUUGCUUUAUGGAAAUCAUUGAAGGUCUGGAUCCCUUUCUCUGAAUGGAGAGAUUGAGAGGGAUGUCGGGCAGUUCCCUGGAAUUCUCGGGUGCCAA` — result for “RBNS enrichment (R)”: 1.71.
